Assay results collected from several papers.
Lines come from different studies, so protocols differ. ± gives the spread as reported.
Method: steady-state kinetics
B1: asnB E349A (Escherichia coli, UniProt P22106); chain CSIFGVFDIKTDAVELRKKALELSRLMRHRGPDWSGIYASDNAILAHERLSIVDVNAGAQPLYNQQKTHVLAVNGEIYNHQALRAEYGDRYQFQTGSDCEVILALYQEKGPEFLDDLQGMFAFALYDSEKDAYLIGRDHLGIIPLYMGYDEHGQLYVASEMKALVPVCRTIKEFPAGSYLWSQDGEIRSYYHRDWFDYDAVKDNVTDKNELRQALEDSVKSHLMSDVPYGVLLSGGLDSSIISAITKKYAARRVEDQERSEAWWPQLHSFAVGLPGSPDLKAAQEVANHLGTVHHEIHFTVQEGLDAIRDVIYHIETYDVTTIRASTPMYLMSRKIKAMGIKMVLSGAGSDEVFGGYLYFHKAPNAKELHEETVRKLLALHMYDCARANKAMSAWGVEARVPFLDKKFLDVAMRINPQDKMCGNGKMEKHILRECFEAYLPASVAWRQKEQFSDGVGYSWIDTLKEVAAQQVSDQQLETARFRFPYNTPTSKEAYLYREIFEELFPLPSAAECVPGGPSVACSSAKAIEWDEAFKKMDDPSGRAVGVHQSAYK
B2: MCAT (Homo sapiens, UniProt Q8IVS2); chain GQGSQVVGMGRGLLNYPRVRELYAAARRVLGYDLLELSLHGPQETLDRTVHCQPAIFVASLAAVEKLHHLQPSVIENCVAAAGFSVGEFAALVFAGAMEFAEGLYAVKIRAEAMQEASEAVPSGMLSVLGQPQSKFNFACLEAREHCKSLGIENPVCEVSNYLFPDCRVISGHQEALRFLQKNSSKFHFRRTRMLPVSGAFHTRLMEPAVEPLTQALKAVDIKKPLVSVYSNVHAHRYRHPGHIHKLLAQQLVSPVKWEQTMHAIYERKKGRGFPQTFEVGPGRQLGAILKSCNMQAWKSYSAVDVL
B3: HARS1 Y330C (Homo sapiens, UniProt P12081); chain MAERAALEELVKLQGERVRGLKQQKASAELIEEEVAKLLKLKAQLGPDESKQKFVLKTPKGTRDYSPRQMAVREKVFDVIIRCFKRHGAEVIDTPVFELKETLMGKYGEDSKLIYDLKDQGGELLSLRYDLTVPFARYLAMNKLTNIKRYHIAKVYRRDNPAMTRGRYREFYQCDFDIAGNFDPMIPDAECLKIMCEILSSLQIGDFLVKVNDRRILDGMFAICGVSDSKFRTICSSVDKLDKVSWEEVKNEMVGEKGLAPEVADRIGDYVQQHGGVSLVEQLLQDPKLSQNKQALEGLGDLKLLFEYLTLFGIDDKISFDLSLARGLDCYTGVIYEAVLLQTPAQAGEEPLGVGSVAAGGRYDGLVGMFDPKGRKVPCVGLSIGVERIFSIVEQRLEALEEKIRTTETQVLVASAQKKLLEERLKLVSELWDAGIKAELLYKKNPKLLNQLQYCEEAGIPLVAIIGEQELKDGVIKLRSVTSREEVDVRREDLVEEIKRRTGQPLCIC
B4: enzyme N158A (Sinorhizobium meliloti, UniProt Q92UV7); chain MTNAEVTIAVRHEPMRIAGRLVDTDDRVEVRYPWNDTVVGTVPAGRAEHAREAFAIAAAYQPKLTRYERQKILLATAEALAARKEEISDVITLELGISKADSLYEVGRAFDVFTLAGQMCIRDDGEIFSCDLTPHGKARKIFTMREPLTAISAITPFAHPLNMVAHKVAPAIATNNCVVVKPTELTPMTALLLADILYEAGLPPEMLSVVTGWPADIGMEMITNPHVDLVTFTGSVPVGKLIAANAHYKRQVLELGGNDPLIILNDLSDDDLARAADLAVAGATKNSGQRCTAVKRILCQESVADRFVPLVLERAKRLRFGDPMDRSTDLGTVIHEKAAALFEERVMRAAEEGADILYHPGRSGALLPPIVVDRVPHQSDLVLEETFGPIIPIVRVPDDDDATITLSNSTAFGLSSGVCTNDYRRMQKYIAGLKVGTVNIWEVPGYRIEMSPFGGIKDSGNGYKEGVIEAMKSFTNVKTFSLPWP
B5: Nudt8 (Mus musculus, UniProt Q9CR24); chain MLPDGLSAEDEQRCRQLLARTTARLRSRPAAAAVLVPLCLVRGVPALLYTLRSSRLVGRHKGEVSFPGGKCDPDDQDVIHTALRETQEELGLEVPKEHVWGVLQPVYDREKATIVPVLANVGPLDLQSLRPNLEEVDEVFEMSLAHLLQTQNQGYTHFCQGGHFSYTLPVFLHGPHRVWGLTAVITELTLKLLAPGFYQPSLAVPELPRG
B6: enzyme (Thermus thermophilus, UniProt Q72J81); chain MEVKRIGVVGAGQMGSGIAQVAASAGYEVVLVDVAESFLERGLAAIRRSLGKFLEKGKITQEAHDEALGRIRTSLSLEDLKDADLIVEAIVEDEGEKRRLFERLGALAKPEAILASNTSSIPITALARYSGRPERFIGMHFFNPVPLMQLVEVIRGELTSEATRDVVVEVARRMGKTPLEVQDYPGFISNRLLMPMINEAIEALREGVATKEAIDGIMRLGMNHPMGPLELADFIGLDTCLAIMEVLHRGFGDDKYRPSPLLRRMVQAGLLGRKAGRGFYTYDEKGNKVG
B7: putA D779W (Bradyrhizobium diazoefficiens, UniProt Q89E26); chain MPNIPPPFTAPYAPDDAEIAARLLPASHLSPPQEARIHRTATRLIEAIRKRDDRLGGVEDMLREFALSTKEGLALMVLAEALLRVPDARTADQFIEDKLGEGDFIHHETKSTAFLVNASAWALGLSARVIQPGETPDGTIGRLVKRLGAPAVRTATRQAMRLMGNHFVLGETIEQALERGKPRSGQKTRYSFDMLGEGARTAADARRYFDAYASAIETIGKAAGNHALPDRPGISVKLSALHPRFEAISRARVMVELVPQLLDLAQRAKAHDLNFTVDAEEADRLELSLDVIAATLADPSLKGWDGFGLAIQAYQKRASAVIDYVDALARAHDRKLMVRLVKGAYWDTEIKRAQERGLDGYPVFTRKAMTDLNYVACASKLLALRPRIFPQFATHNALTVATVLEMAEGSSGFEFQRLHGMGEALYEQLAKDHADIAYRTYAPVGSHRDLLAYLVRRLLENGANSSFVAQAADYRVPVPALLQRPADAIVRPQAAAHPRIPLPCDLFAPERRNSRGVEFGARTALDQLLTDVKAETGDLKPIADATPDQAHAAVAAARAGFAGWSRTPAGIRAAALEQAAHLLESRSAHFIALLQREGGKTLDDALSELREAADFCRYYAAQGRKLFGSETAMPGPTGESNALTMRGRGVFVAISPWNFPLAIFLGQVTAALMAGNSVVAKPAEQTPRIAREAVALLHEAGIPKSALYLVTGDGRIGAALTAHPDIAGVVFTGSTEVARSINRALAAKDGPIVPLIAETGGINAMIADATALPEQVADWVVTSAFRSAGQRCSALRLLFVQEDVADRMIEMVAGAARELKIGDPSDVATHVGPVIDVEAKQRLDAHIARMKTEARLHFAGPAPEGCFVAPHIFELTEAGQLTEEVFGPILHVVRYRPENLERVLRAIERTGYGLTLGVHSRIDDSIEAIIDRVQVGNIYVNRNMIGAVVGVQPFGGNGLSGTGPKAGGPHYLARFATEQTVTINTAAAGGNAALLAGEE
B8: Ma-WS/DGAT G25V (Marinobacter nauticus); chain MTPLNPTDQLFLWLEKRQQPMHVGVLQLFSFPEGAPDDYVAQLADQLRQKTEVTAPFNQRLSYRLGQPVWVEDEHLDLEHHFRFEALPTPGRIRELLSFVSAEHSHLMDRERPMWEVHLIEGLKDRQFALYTKVHHSLVDGVSAMRMATRMLSENPDEHGMPPIWDLPCLSRDRGESDGHSLWRSVTHLLGLSGRQLGTIPTVAKELLKTINQARKDPAYDSIFHAPRCMLNQKITGSRRFAAQSWCLKRIRAVCEAYGTTVNDVVTAMCAAALRTYLMNQDALPEKPLVAFVPVSLRRDDSSGGNQVGVILASLHTDVQEAGERLLKIHHGMEEAKQRYRHMSPEEIVNYTALTLAPAAFHLLTGLAPKWQTFNVVISNVPGPSRPLYWNGAKLEGMYPVSIDMDRLALNMTLTSYNDQVEFGLIGCRRTLPSLQRMLDYLEQGLAELELNAGL
UniProt P19337, sequence (whole entry, looked up): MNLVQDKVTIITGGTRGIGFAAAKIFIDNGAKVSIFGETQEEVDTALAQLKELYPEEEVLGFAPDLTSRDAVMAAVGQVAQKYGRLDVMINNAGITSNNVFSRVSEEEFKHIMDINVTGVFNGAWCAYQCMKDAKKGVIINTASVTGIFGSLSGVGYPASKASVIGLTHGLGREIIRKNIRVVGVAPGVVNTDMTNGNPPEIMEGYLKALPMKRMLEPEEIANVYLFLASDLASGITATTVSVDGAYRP
UniProt Q47898, sequence (whole entry, looked up): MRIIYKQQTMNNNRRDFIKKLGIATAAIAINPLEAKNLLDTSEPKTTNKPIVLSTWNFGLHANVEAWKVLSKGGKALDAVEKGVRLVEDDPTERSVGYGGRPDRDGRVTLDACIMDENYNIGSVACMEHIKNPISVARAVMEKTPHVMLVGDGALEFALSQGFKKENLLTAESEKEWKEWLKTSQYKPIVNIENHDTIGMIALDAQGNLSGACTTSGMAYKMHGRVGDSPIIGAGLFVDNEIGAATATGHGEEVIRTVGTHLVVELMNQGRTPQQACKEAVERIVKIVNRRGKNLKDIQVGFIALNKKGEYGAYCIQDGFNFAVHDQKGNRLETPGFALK
UniProt O60656, sequence (whole entry, looked up): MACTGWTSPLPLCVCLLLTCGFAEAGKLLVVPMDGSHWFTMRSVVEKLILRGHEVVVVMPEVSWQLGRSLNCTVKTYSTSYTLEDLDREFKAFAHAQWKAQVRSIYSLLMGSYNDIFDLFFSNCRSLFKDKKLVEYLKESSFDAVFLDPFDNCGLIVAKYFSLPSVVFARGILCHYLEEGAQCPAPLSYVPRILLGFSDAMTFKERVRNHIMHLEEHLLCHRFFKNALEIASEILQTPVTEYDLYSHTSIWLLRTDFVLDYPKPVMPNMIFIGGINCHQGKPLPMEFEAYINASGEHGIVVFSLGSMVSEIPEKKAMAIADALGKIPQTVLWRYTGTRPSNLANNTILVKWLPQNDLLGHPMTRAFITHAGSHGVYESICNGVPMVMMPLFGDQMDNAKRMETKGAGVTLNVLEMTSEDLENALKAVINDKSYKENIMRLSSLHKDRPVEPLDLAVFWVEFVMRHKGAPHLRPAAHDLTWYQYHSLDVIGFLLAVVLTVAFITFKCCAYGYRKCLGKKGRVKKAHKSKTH

For `B1 (asnB E349A)`, the kcat was 6.37 ± 0.04 s⁻¹ (NC(=O)CC[C@H](N)C(=O)O; pH 8, 37 °C, 100 mM NaCl, glutaminase site, with: MgCl2; no ATP).
With `enzyme (Elizabethkingia miricola, UniProt Q47898)` the kcat was 14.2 ± 0.99 s⁻¹ (CC(=O)N[C@@H]1[C@@H](O)[C@H](O)[C@@H](CO)O[C@H]1NC(=O)C[C@H](N)C(=O)O; pH 7.5, 37 °C).
`BaiA2 (Clostridium scindens, UniProt P19337)` gave a kcat of 0.122 s⁻¹ (C[C@H](CCC(=O)SCCNC(=O)CCNC(=O)[C@H](O)C(C)(C)COP(=O)(O)OP(=O)(O)OC[C@H]1O[C@@H](n2cnc3c(N)ncnc32)[C@H](O)[C@@H]1OP(=O)(O)O)[C@H]1CC[C@H]2[C@@H]3CC[C@@H]4CC(=O)CC[C@]4(C)[C@H]3CC[C@]12C; pH 8.7, 37 °C, with: NADH).
`protein (Trypanosoma brucei, UniProt Q382C3)` gave a kcat of 1.15 s⁻¹ (NCCOP(=O)(O)O; pH 7.5, with: CTP 0.1 mM).
`B2 (MCAT)` gave a kcat of 1.08 ± 0.102 s⁻¹ (CC(C)(COP(=O)(O)OP(=O)(O)OC[C@H]1O[C@@H](n2cnc3c(N)ncnc32)[C@H](O)[C@@H]1OP(=O)(O)O)[C@@H](O)C(=O)NCCC(=O)NCCSC(=O)CC(=O)O; pH 6.8, 20 °C, labelled substrate, with: holo-ACP 20 µM).
With `B3 (HARS1 Y330C)` the kcat was 0.48 s⁻¹ (Nc1ncnc2c1ncn2[C@@H]1O[C@H](COP(=O)(O)OP(=O)(O)OP(=O)(O)O)[C@@H](O)[C@H]1O; pH 7.5, saturation not reached, with: histidine, tRNAHis 5 µM, MgCl2 10 mM, KCl 150 mM).
The kcat of `enzyme (Bifidobacterium adolescentis, UniProt A1A3M6)` is reported as 81.5 ± 0.51 s⁻¹ (O=[N+]([O-])c1ccc(O[C@H]2OC[C@H](O)[C@H](O)[C@H]2O)cc1; pH 5, 40 °C).
`B4 (enzyme N158A)` has a kcat of 0.01 ± 0.001 s⁻¹ (NC(=O)c1ccc[n+]([C@@H]2O[C@H](COP(=O)(O)OP(=O)(O)OC[C@H]3O[C@@H](n4cnc5c(N)ncnc54)[C@H](O)[C@@H]3O)[C@@H](O)[C@H]2O)c1; pH 7.5, 30 °C, cofactor varied).
The kcat of `Ptb (Listeria monocytogenes, UniProt Q8Y7B7)` is reported as 674 ± 25.2 s⁻¹ (CCCC(=O)SCCNC(=O)CCNC(=O)[C@H](O)C(C)(C)COP(=O)(O)OP(=O)(O)OC[C@H]1O[C@@H](n2cnc3c(N)ncnc32)[C@H](O)[C@@H]1OP(=O)(O)O; pH 7.5, 25 °C, apparent).
The kcat of `B5 (Nudt8)` is reported as 1.93 ± 0.167 s⁻¹ (CC(=O)SCCNC(=O)CCNC(=O)[C@H](O)C(C)(C)COP(=O)(O)OP(=O)(O)OC[C@H]1O[C@@H](n2cnc3c(N)ncnc32)[C@H](O)[C@@H]1OP(=O)(O)O; pH 8.5, with: 2 mM Mn2+).
`B6 (enzyme)` has a kcat of 20.3 s⁻¹ (NC(=O)C1=CN([C@@H]2O[C@H](COP(=O)(O)OP(=O)(O)OC[C@H]3O[C@@H](n4cnc5c(N)ncnc54)[C@H](O)[C@@H]3O)[C@@H](O)[C@H]2O)C=CC1; pH 7, 65 °C, cofactor varied).
With `B7 (putA D779W)` the kcat was 0.003 ± 0.001 s⁻¹ (O=C(O)[C@@H]1CCC=N1; pH 7.5, 23 °C).
With `UGT1A9 (Homo sapiens, UniProt O60656)` the Km was 0.91 µM (COc1cc(-c2cc(=O)c3c(O)cc(O)cc3o2)ccc1O; pH 7.4, 37 °C).
`B8 (Ma-WS/DGAT G25V)` has a kcat of over 0.09 s⁻¹ (CCCCCC(=O)SCCNC(=O)CCNC(=O)[C@H](O)C(C)(C)COP(=O)(O)OP(=O)(O)OC[C@H]1O[C@@H](n2cnc3c(N)ncnc32)[C@H](O)[C@@H]1OP(=O)(O)O; pH 7.5, 25 °C, NaCl 300 mM, lower limit, not saturable, apparent, with: 1-hexanol 4 mM).

For quick reference, copied from above:
With `B3 (HARS1 Y330C)` the kcat was 0.48 s⁻¹ (Nc1ncnc2c1ncn2[C@@H]1O[C@H](COP(=O)(O)OP(=O)(O)OP(=O)(O)O)[C@@H](O)[C@H]1O; pH 7.5, saturation not reached, with: histidine, tRNAHis 5 µM, MgCl2 10 mM, KCl 150 mM).
